Assay results gathered from unrelated publications.
Protocols differ between the studies behind these lines. Values joined by “and” are separate records of one study, mostly repeats; a detail may differ. ≈ marks a conversion by molar mass, not a printed value.
Sequence of UniProt P04201 (whole entry, looked up): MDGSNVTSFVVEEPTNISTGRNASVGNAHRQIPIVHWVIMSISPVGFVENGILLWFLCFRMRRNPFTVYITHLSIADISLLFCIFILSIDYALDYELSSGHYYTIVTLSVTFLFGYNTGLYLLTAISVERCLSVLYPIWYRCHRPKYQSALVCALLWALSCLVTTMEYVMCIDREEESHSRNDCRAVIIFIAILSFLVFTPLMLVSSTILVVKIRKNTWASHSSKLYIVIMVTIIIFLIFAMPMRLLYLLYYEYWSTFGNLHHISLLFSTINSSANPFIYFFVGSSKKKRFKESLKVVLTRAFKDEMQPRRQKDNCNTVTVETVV
Sequence of UniProt P23219 (whole entry, looked up): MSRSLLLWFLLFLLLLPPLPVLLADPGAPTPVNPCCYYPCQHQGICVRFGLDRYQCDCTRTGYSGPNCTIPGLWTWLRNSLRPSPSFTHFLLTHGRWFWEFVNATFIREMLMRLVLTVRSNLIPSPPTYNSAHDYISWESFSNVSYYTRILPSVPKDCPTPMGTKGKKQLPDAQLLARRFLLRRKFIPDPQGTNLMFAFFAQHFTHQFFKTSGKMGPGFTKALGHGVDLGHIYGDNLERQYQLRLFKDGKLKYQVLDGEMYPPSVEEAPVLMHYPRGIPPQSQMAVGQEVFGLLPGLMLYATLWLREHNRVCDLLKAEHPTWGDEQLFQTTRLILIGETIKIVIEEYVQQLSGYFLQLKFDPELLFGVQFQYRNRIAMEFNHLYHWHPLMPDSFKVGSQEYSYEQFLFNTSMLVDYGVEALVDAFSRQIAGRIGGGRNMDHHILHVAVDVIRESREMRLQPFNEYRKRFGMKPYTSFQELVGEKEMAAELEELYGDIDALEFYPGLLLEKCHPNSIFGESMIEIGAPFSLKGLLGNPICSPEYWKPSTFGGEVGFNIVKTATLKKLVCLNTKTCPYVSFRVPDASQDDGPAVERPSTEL
Sequence of UniProt Q96PY6 (whole entry, looked up): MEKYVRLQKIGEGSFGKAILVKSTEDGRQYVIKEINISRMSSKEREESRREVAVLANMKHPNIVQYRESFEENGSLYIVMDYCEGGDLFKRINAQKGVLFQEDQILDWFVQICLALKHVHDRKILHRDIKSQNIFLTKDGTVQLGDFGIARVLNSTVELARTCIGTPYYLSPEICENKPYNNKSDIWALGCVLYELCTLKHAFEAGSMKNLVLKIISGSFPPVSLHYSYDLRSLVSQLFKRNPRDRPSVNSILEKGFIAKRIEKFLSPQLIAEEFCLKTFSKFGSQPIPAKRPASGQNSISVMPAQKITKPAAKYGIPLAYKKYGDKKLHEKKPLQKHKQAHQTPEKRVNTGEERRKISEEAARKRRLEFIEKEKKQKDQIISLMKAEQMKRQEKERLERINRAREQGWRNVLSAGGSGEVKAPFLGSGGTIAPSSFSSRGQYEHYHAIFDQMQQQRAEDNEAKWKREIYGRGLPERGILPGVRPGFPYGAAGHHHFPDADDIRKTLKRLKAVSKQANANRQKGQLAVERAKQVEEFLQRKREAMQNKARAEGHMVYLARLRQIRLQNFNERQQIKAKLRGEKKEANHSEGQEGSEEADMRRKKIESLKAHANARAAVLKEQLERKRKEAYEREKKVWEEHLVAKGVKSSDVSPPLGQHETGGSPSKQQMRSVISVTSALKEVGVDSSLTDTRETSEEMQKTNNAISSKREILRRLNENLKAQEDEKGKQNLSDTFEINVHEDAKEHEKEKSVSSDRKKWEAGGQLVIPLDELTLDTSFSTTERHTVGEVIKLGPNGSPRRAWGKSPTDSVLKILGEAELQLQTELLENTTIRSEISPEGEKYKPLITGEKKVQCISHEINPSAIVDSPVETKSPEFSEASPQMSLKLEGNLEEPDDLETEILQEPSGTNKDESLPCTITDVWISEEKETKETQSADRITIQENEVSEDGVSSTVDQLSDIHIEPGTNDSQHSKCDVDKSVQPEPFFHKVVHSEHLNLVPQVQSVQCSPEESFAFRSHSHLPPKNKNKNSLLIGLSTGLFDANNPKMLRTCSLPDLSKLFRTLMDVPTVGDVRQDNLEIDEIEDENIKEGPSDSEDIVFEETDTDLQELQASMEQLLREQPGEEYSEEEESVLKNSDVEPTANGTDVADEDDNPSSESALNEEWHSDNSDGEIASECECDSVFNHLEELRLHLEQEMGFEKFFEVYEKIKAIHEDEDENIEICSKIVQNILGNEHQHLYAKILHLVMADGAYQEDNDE

Structure (SMILES) = COc1cc2c(Oc3ccc4[nH]c(C)cc4c3F)ccnc2cc1OCC1(N)CC1; system = paediatric recurrent refractory sarcoma; setting = 8 mg/kg; endpoint = grade 3 Hyperthyroidism; result = 0%
Structure (SMILES) = COc1ccc(NC(=O)Nc2ccc3c(c2)C=CCP(=O)(O)O3)cc1; target or system = A-375; test = cell proliferation, MTT; setting = 100 µM, 72 h, normoxia; endpoint = maximal inhibition; result = 50%
Structure (SMILES) = CCN(CC)c1ccc(C=NNC(=O)CSc2nc3ccccc3c(=O)n2Cc2ccc(S(N)(=O)=O)cc2)c(O)c1; target or system = HOP-62; test = NCI five-dose screen; endpoint = CC50; result = > 100 µM
Structure (SMILES) = Cn1cncc1C1=CN(c2ncnc3[nH]cnc23)CCS1; target or system = HOP-92; setting = lung cancer; endpoint = CC50; result = > 200 µM
Structure (SMILES) = COC(=O)C[C@H](NC(=O)[C@H](C)NC(=O)[C@@H](NC(=O)OCc1ccccc1)C(C)C)C(=O)CF; target or system = BC-3 or BCBL-1; test = MTT; setting = 40 µM, compound alone; endpoint = cell death increase; result = > 10%
Structure (SMILES) = C[C@H]1COCCN1c1nc(NCc2cccnc2C(F)(F)F)c2cccnc2n1; target or system = cardiomyocytes; test = cellular ATP level; setting = in vitro toxicology; endpoint = IC50; result = > 100 µM
Structure (SMILES) = C[C@@H](O)[C@H](NC(=O)[C@@H]1CSSC[C@H](NC(=O)[C@@H](Cc2ccccc2)NC(=O)CN2CCN(CC(=O)[O-])CCN(CC(=O)[O-])CCN(CC(=O)[O-])CC2)C(=O)N[C@@H](Cc2ccc(O)cc2)C(=O)N[C@H](Cc2c[nH]c3ccccc23)C(=O)N[C@@H](CCCCN)C(=O)N[C@@H]([C@@H](C)O)C(=O)N1)C(=O)O.[177Lu+3]; target or system = MEC1 treated with 100 µM zebularine; test = gamma counter; system = serum-free RPMI; setting = 30 min, 37 °C; endpoint = uptake; result = 0.842%
Structure (SMILES) = COc1ccc2c(c1)[nH]c1c(C)nccc12; target or system = DU-145; test = bisulfite pyrosequencing, measured: RASSF1A promoter CpG site 23; setting = concentration not given; scale = reference: vehicle; endpoint = methylation reduction; result = 3.09%
Structure (SMILES) = CN[C@@H]1C[C@H]2O[C@@](C)([C@@H]1OC)n1c3ccccc3c3c4c(c5c6ccccc6n2c5c31)C(=O)NC4; target or system = Caco-2; test = qRT-PCR, measured: Bcl-2; setting = IC50; scale = reference: untreated; endpoint = mRNA fold change; result = 0.321
Structure (SMILES) = C[C@@H](O)[C@H]1C(=O)N2C(C(=O)O)=C(SCCN=CN)C[C@H]12; target or system = Escherichia coli DH5α expressing KPC-2; test = bacterial growth; endpoint = MIC; result = 16 µg/mL (≈ 53.4 µM)
Structure (SMILES) = CC[C@H](C)[C@H](NC(=O)[C@H](Cc1ccccc1)NC(=O)[C@H](CCC(=O)O)NC(=O)[C@H](CCCNC(=N)N)NC(=O)[C@H](C)NC(=O)[C@H](C)NC(=O)[C@H](CCC(N)=O)NC(=O)[C@H](CCC(=O)O)NC(=O)[C@H](CCC(=O)O)NC(=O)[C@H](CC(C)C)NC(=O)[C@H](Cc1ccc(O)cc1)NC(=O)[C@H](CO)NC(=O)[C@H](CO)NC(=O)[C@@H](NC(=O)[C@H](CC(=O)O)NC(=O)[C@H](CO)NC(=O)[C@@H](NC(=O)[C@H](Cc1ccccc1)NC(=O)[C@@H](NC(=O)CNC(=O)[C@H](CCC(=O)O)NC(=O)[C@H](C)NC(=O)CCc1c[nH]cn1)[C@@H](C)O)[C@@H](C)O)C(C)C)C(=O)N[C@@H](C)C(=O)N[C@@H](Cc1c[nH]c2ccccc12)C(=O)N[C@@H](CC(C)C)C(=O)N[C@H](C(=O)N[C@@H](CCCNC(=N)N)C(=O)NCC(=O)N[C@@H](CCCNC(=N)N)C(=O)N[C@@H](CCCCNC(=O)COCCOCCNC(=O)COCCOCCNC(=O)CC[C@H](NC(=O)CCCCCCCCCCCCCCCCC(=O)O)C(=O)O)C(=O)NCC(=O)NCC(=O)N[C@@H](CO)C(=O)N[C@@H](CCCCNc1c(NCCCCCN(O)C(=O)CCC(=O)NCCCCCN(O)C(=O)CCC(=O)NCCCCCN(O)C(C)=O)c(=O)c1=O)C(=O)O)C(C)C [zirconium-89 labelled]; system = rat, lung; setting = sc, 3 nmol/kg, 168 h, ex vivo; endpoint = tissue uptake; result = 0.73 %ID/g
Structure (SMILES) = C/C=C(/C)C(=O)O[C@H]1C(C)=C2[C@H]([C@@H]1OC(=O)CCCCCCC)[C@@](C)(OC(C)=O)C[C@H](OC(=O)CCC)[C@@]1(O)[C@H]2OC(=O)[C@@]1(C)O; target or system = HEK-293T; test = RNA-seq GSEA, measured: Hallmark KRAS signaling down; setting = 500 nM, 6 h; scale = direction not given; endpoint = normalized enrichment score; result = -1.15
Structure (SMILES) = CN1C(=O)[C@@]23C[C@]4([C@]56C[C@@]78SS[C@@](CO)(C(=O)N7[C@H]5Nc5ccccc56)N(C)C8=O)c5ccccc5N[C@@H]4N2C(=O)[C@]1(CO)SS3; target or system = OCI-Ly1; setting = 0.1 µM, 120 h; endpoint = viability; result = 1.07%
Structure (SMILES) = C[C@H]1CN(c2n[nH]c3nc(N[C@H]4CC[C@H](NS(=O)(=O)CCC(F)(F)F)CC4)ncc23)CCO1; target or system = Serine/threonine-protein kinase Nek1 (NEK1, Homo sapiens, UniProt Q96PY6); test = inhibitor, Kinobeads competition profiling; setting = 0.8 µM; scale = reference: vehicle; endpoint = relative abundance; result = 1.01
Structure (SMILES) = CC[C@H](C)[C@@H]1NC(=O)[C@@H]2CCCN2C(=O)[C@H](CC(C)C)NC(=O)[C@H](CC(C)C)NC(=O)CNC(=O)[C@@H](NC(=O)[C@@H](NC(=O)[C@H](CC(=O)O)NC(=O)CNC(=O)[C@@H](NC(=O)[C@H](C)NC(=O)CNC(=O)[C@H](CCCCN)NC(=O)[C@H](CC(C)C)NC(=O)[C@H](CC(C)C)NC(=O)[C@H](CCCCN)NC(=O)CNC(=O)[C@@H](NC(=O)[C@@H](N)CC(C)C)C(C)C)C(C)C)C(C)C)CSSC[C@@H](C(=O)O)NC1=O; test = RNA-seq, measured: Syk mRNA; system = mouse traumatic brain injury, frontal cortex and hippocampus; setting = dose not given; scale = reference: TBI plus compound vs TBI; endpoint = log2 fold change; result = -2.17
Structure (SMILES) = COc1cc(Nc2ncc(F)c(Nc3ccc4c(n3)NC(=O)C(C)(C)O4)n2)cc(OC)c1OC; target or system = Prostaglandin G/H synthase 1 (PTGS1, Homo sapiens, UniProt P23219); endpoint = IC50; result = > 10 µM
Structure (SMILES) = CN1CCN(C2(CNC3CCN(c4cccc(-c5cc6cc(F)ccc6[nH]5)c4)CC3)CCC2)CC1; target or system = SN12C; endpoint = CC50; result = 7.93 µM
Structure (SMILES) = Nc1ncc(-c2nc(N3CCOCC3)nc(N3CCOCC3)n2)c(C(F)F)n1; target or system = KU812; setting = 72 h; endpoint = GI50; result = 0.52 µM
Structure (SMILES) = Cc1cc(C(C)(C)c2ccc(O)c(C)c2)ccc1O; target or system = HepG2 spheroids; test = cell proliferation, flow cytometry, measured: Ki67; setting = 10 µM, 96 h; scale = reference: solvent control; endpoint = inhibition; result = 7.32%
Structure (SMILES) = CO[C@H]1C[C@@H]2CC[C@@H](C)[C@@](O)(O2)C(=O)C(=O)N2CCCC[C@H]2C(=O)O[C@H]([C@H](C)C[C@@H]2CC[C@@H](OC(=O)NCCOCCOCCOCCOCCOCCOCCOCCOCCC(=O)N3CCc4cc(Cn5nc(-c6ccc7oc(N)nc7c6)c6c(N)ncnc65)ccc4C3)[C@H](OC)C2)C[C@@H](O)[C@H](C)/C=C(\C)[C@@H](O)[C@@H](OC)C(=O)[C@H](C)C[C@H](C)/C=C/C=C/C=C/1C; test = phase 1 dose escalation, measured: neutropenia; system = advanced solid tumour patients; setting = intravenous, 16 mg weekly, any grade; endpoint = dose-reducing adverse events; result = 25%
Structure (SMILES) = COc1ccc([C@H]2c3[nH]c4ccc(Cl)cc4c3CCN2C(=O)Oc2ccc(Cl)cc2)cc1; target or system = human dermal fibroblasts with PBMC; test = cytokine secretion, measured: sVEGF; setting = 0.001 µM, 48 h; endpoint = inhibition; result = 90%
Structure (SMILES) = COc1c(CCC[P+](c2ccccc2)(c2ccccc2)c2ccccc2)cc2c(c1OC)OCO2.[I-]; target or system = HOP-62; test = SRB; endpoint = TGI; result = -4.84 log M
Structure (SMILES) = Oc1ccc2c3c1O[C@H]1[C@@H](O)CC[C@@]4(O)[C@@H](C2)N(CC2CCC2)CC[C@]314; target or system = Proto-oncogene Mas (Homo sapiens, UniProt P04201); test = β-arrestin recruitment, TANGO luminescence, measured: MAS1; setting = concentration not given; scale = reference: basal luminescence; endpoint = log2 fold change; result = -0.011
Structure (SMILES) = COc1cc(CCC[P+](c2ccccc2)(c2ccccc2)c2ccccc2)c(OC)c2c1OCO2.[I-]; target or system = DU-145; test = SRB; endpoint = LC50; result = > -4 log M
Structure (SMILES) = C[C@]12CC[C@H](O)C[C@H]1CC[C@@H]1[C@@H]2CC[C@]2(C)[C@@H](c3ccc(=O)oc3)CC[C@]12O; target or system = MCF7; test = RT-qPCR, measured: SIAH2; setting = 50 nM, 48 h, without estradiol, unit not given; scale = reference: untreated; endpoint = mRNA level; result = 0.122 and 0.157 and 0.194
